Published values of several laboratories.
Each line is one published result; not all experiments were run side by side. ≈ marks a conversion by molar mass, not a printed value.
Organism: Saccharomyces cerevisiae

Structure (SMILES) | test | test system | setting | quantity | result
O=C(O)P(=O)(O)O | cell growth, OD600 after 22 h | PfPiT-expressing strain | pH 4.3, 30 °C, together with: 12 mM NaH2PO4 | IC50 | 140 µM
CO[C@H]1[C@H](O[C@H]([C@H]2O[C@@H](n3ccc(=O)[nH]c3=O)[C@H](O)[C@@H]2O)[C@H](NCCCNC(=O)[C@@H](NC(=O)[C@@H](NC(=O)N[C@H](C(=O)O)C(C)C)[C@@H]2CCN=C(N)N2)[C@@H](OC(=O)CCCCCCCCCCCCN(O)C(=N)N)C(C)C)C(=O)O)O[C@H](CN)[C@H]1O | alamar blue | BY4742 |  | MIC50 | > 35 µg/mL
COC(CNC1=CC2=NCCc3c[nH]c(c32)C1=O)c1c[nH]c2ccccc12 (stereo not shown) | cell growth, liquid culture | BY4741 | 100 µM, 24 h | inhibition | 42.3%
CC1=NNC(=O)C1=NNc1ccc(S(N)(=O)=O)cc1 |  |  | 500 µg/mL | glucose uptake | 60.9%
C[C@@H]1[C@H](O)[C@@H](C)/C=C/C=C/C=C/C=C/C=C/C=C/C=C/[C@H](O[C@@H]2O[C@H](C)[C@@H](O)[C@H](N)[C@@H]2O)C[C@@H]2O[C@](O)(C[C@@H](O)C[C@@H](O)[C@H](O)CC[C@@H](O)C[C@@H](O)CC(=O)O[C@H]1C)C[C@H](O)[C@H]2C(=O)O |  | YPD medium | 30 °C | MIC | 2 µg/mL (≈ 2.16 µM)
CCN(CCCS(=O)(=O)O)c1cccc(C)c1 | cell growth, OD600 after 22 h | PfPiT-expressing strain | 22 h, pH 4.3, 30 °C, together with: 12 mM NaH2PO4 | IC50 | 3700 µM
NC1=CC2=NCCc3c[nH]c(c32)C1=O | cell growth, liquid culture | BY4741 | 100 µM, 24 h | inhibition | 100%
CC1=NN(c2cccc(C)c2)C(=O)C1=NNc1ccc(S(N)(=O)=O)cc1 |  |  | 100 µg/mL | glucose uptake | 42.3%
OC(Cn1cncn1)(Cn1cncn1)c1ccc(F)cc1F | cell growth, liquid culture | BY4741 | 100 µM, 24 h | inhibition | 90.8%
CC1=NNC(=S)NC(=O)C1/N=N/c1ccc(S(N)(=O)=O)cc1 (stereo not shown) |  |  | 200 µg/mL | glucose uptake | 65.1%
